{"data": "Results from different studies", "note": "Each numbered part is a random draw from the data of one study; scales do not carry over between parts."}
{"data": "Block 1", "target": "RNA binding protein fox-1 homolog 2, RRM domain, GST-SBP tag (RBFOX2, Homo sapiens, UniProt O43251-10, residues 100-194)", "technique": "RNA Bind-n-Seq", "form": "RNA", "medium": "in vitro", "concentration": "365 nM", "setting": "natural RNA segment, single round, ends assumed", "reference": "no-protein control", "direction": "higher = stronger binding", "shared flanks, not repeated": "GGGAGUUCUACAGUCCGACGAUC … UGGAAUUCUCGGGUGCCAA", "Residues (chain)": "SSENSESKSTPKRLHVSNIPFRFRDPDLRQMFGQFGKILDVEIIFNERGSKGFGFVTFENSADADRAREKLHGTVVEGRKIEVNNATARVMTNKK"}
{"Strand": "CCUAUUAAAGACAAAACUGGCUGCUUCUGAGCUCUUUCAGGCUGUACUUUGUGCUGUGCCAGUGGCUCUGCCCAGGCUCCGCCAUCCCUUUACUGGAGUUCAUUGGUCAG", "RBNS enrichment (R)": 0.231}
{"Strand": "AAAGAGUCCAAACAACUCAUCAUUUUCUUCUCUGCAUAUCUCACCACAAUUGUAGGAUUUUUUUUUCCAUGUACAUUCUUUGUAUAUGUUCAGAAGGGAUCAAAAUUGCC", "RBNS enrichment (R)": 0.278}
{"Strand": "UAUGAGUGGAUCAAACCGGUUCUGUUCUUUCUUGUGUUGCCAUGUUACUAUGCCUCAAGCCCAGUUUGCUUUUGCCGCAGCGAUGGGGCCAGUCUCAUUCCUCCCCAGGA", "RBNS enrichment (R)": 0.239}
{"Strand": "CACUUUUAGCAAAGUUUCUGUGGAUGCUAGUAAUUUAUACUUGAUCAGUUGUAUUCUAGUAAAGAACCUCUUUGGGGACUGUAGGAAAGCAUGUUUUUGUGGUUAUAAAA", "RBNS enrichment (R)": 16}
{"Strand": "UUGAGUUCAAGUGAAAGAUUCUUCCAGGGUUUUAUUUUUUCCCCUCCUAACAAAGUCUCAUAGUGUUAACACUGGUUCUGCAAUAUCUCUGAGGUGCAAAGAAUGCACUU", "RBNS enrichment (R)": 0.804}
{"Strand": "ACAAAAGUCCAGCCAUUAUCAUCCUCCUGAGUUAUUUGAAAUGAUUUUUUUUGUACAUUUUGGCUGCAGUAUUGGUGGUAGAAUAUACUAUAAUAUGGAUCAUCUCUACU", "RBNS enrichment (R)": 0.364}
{"Strand": "UACCUCACAUUUUUUGUUUCCAUUAGUAAUAUUCUAGGUACCUCACAAAAUGUAUUAUGGUGCCAUGGCUGUUAGUUUUUAGUGAGUGCUGUAGGAUUAAUUCGAAAAUA", "RBNS enrichment (R)": 0.61}
{"Strand": "AAUGAAAAGUUGCAUACUUAUUGAUGUAUUGUAUGAGCCAGUAGCAUUUUAUGUACAAAACAGAAGUCAAUGCAACAGUAUGUAUGUGUGCCUGUGUGUGUAUAAAAAUA", "RBNS enrichment (R)": 2.82}
{"data": "Block 2", "target": "Ras GTPase-activating protein-binding protein 1, C-terminal RGG region (G3BP1, Homo sapiens, UniProt Q13283)", "technique": "RNA Bind-n-Seq", "form": "RNA", "medium": "in vitro", "concentration": "1 µM", "setting": "whole 134-nt RNA, ends assumed", "added": "150 mM KCl", "reference": "input library", "direction": "higher = stronger binding", "shared flanks, not repeated": "GGGAGUUCUACAGUCCGACGAUC … UGGAAUUCUCGGGUGUCAAGG", "chain of UniProt Q13283 (whole entry, looked up)": "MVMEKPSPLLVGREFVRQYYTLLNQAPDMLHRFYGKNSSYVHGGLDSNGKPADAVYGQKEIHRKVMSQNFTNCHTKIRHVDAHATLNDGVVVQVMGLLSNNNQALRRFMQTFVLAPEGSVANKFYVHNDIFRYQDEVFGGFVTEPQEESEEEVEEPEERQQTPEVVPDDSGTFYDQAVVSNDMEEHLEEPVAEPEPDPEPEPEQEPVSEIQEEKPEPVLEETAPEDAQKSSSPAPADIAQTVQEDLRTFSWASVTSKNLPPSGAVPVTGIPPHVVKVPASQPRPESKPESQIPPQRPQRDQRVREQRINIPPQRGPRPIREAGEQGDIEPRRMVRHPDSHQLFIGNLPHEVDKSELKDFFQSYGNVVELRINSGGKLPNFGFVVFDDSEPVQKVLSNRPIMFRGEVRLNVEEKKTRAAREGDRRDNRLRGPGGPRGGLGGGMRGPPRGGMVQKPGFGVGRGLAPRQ"}
{"Strand": "CACAGACAACACGCAAAAACACAGACACAGAGGGAAGGGGUUGGGAUGGGGACAGGGUGCACAGCAGGGCGGGGUAGGACCCCAGCCCCU", "log2 enrichment": -0.116}
{"Strand": "CAAGUCCUGUGCUACACAUCGUAUGUACCGAAUCGGUGGUUUUUGGAAAAAAAGGAAAGUAUUAUGUUACGCCGUUCGGAUCUGCACUUC", "log2 enrichment": -1.52}
{"Strand": "GCUUUGCCUUCACUUAUUUCUUUGCUUUUUAAAAACUAUUUGUAAUGUAAUUUUAAUGCAUUUUUUACAGGCCCAGUAAUGGUUAAAUAC", "log2 enrichment": -0.913}
{"Strand": "CACAGACAACACGCACCCACACAGACACAGAGGGAAGGGGUUGGGAUGGGGACAGGGUGCACAGCAGGGCGGGGUAGGACCGCAGCCCCU", "log2 enrichment": -1.08}
{"Strand": "CACAGACAACACGCACGCACACAGACACAGAGGGAAGGGGUUGGGAUGGGGACAGGGUGCACAGCAGGGCGGGGUAGGACCCCAGCCCCU", "log2 enrichment": -0.212}
{"Strand": "CUGUGCUACACAUCGUAUGUACCGAAUCGGGGCCCCCCCGGGGCCCCCCCGGCCCCCCCGGGAAAGUAUUAUGUUACGCCGUUCGGAUCU", "log2 enrichment": -2.05}
{"Strand": "GCAGGAAGUAAAAGCAAAUGGAAAUGCUUCGGAUAGUGGCAGGGGUGGGGGUUGCUAAGGAAAGGGUGGGAUGGGAGUGGGUAAAGAGUU", "log2 enrichment": 1.69}
{"Strand": "AAAAAAAGUGUGUAUUAGGAGGAGAGAGAGGAAAAAAAGAGGAAAGAAGGAAAAAAAAAAGAAUUAAAAAAAAAAAAAAGAAAAACAGAA", "log2 enrichment": -0.233}
{"Strand": "ACCAUGCAGGUGGGCAUCUUUGGUAAGUGGGGCAAGGGGGGGAUAGGGAGGGGGGUAACACUUUGGGAACAGGUGGUCCCAGGUCGUUUC", "log2 enrichment": -1.17}
{"data": "Block 3", "target": "Histone acetyltransferase KAT6A, both winged helices, GST fusion (KAT6A, Homo sapiens, UniProt Q92794, residues 1-181)", "technique": "protein binding microarray", "form": "double-stranded DNA, one strand shown", "medium": "in vitro", "concentration": "not given", "setting": "8-mer, flanks averaged, mean of 2 arrays, mostly near background", "reference": "not given", "direction": "higher = stronger binding", "Construct (chain)": "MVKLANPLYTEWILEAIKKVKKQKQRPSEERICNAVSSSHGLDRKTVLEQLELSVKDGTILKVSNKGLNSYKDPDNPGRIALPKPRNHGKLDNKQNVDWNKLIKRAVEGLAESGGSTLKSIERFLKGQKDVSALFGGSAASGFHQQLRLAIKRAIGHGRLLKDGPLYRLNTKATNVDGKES"}
{"Strand": "ACCTCTCC", "E-score": 0.0491}
{"Strand": "CTGGTGGA", "E-score": -0.0987}
{"Strand": "CCCACCAA", "E-score": -0.234}
{"Strand": "GACGCGTA", "E-score": 0.295}
{"Strand": "CGATCGAG", "E-score": 0.138}
{"Strand": "ACGCGGTG", "E-score": 0.249}
{"Strand": "GACCTATA", "E-score": 0.0574}
{"Strand": "GGGGAGGA", "E-score": -0.127}
{"Strand": "CCTAGACA", "E-score": -0.177}
{"Strand": "CCAGATGA", "E-score": -0.045}
{"Strand": "CAGGGCTC", "E-score": -0.169}
{"Strand": "CACTATGG", "E-score": -0.156}
{"Strand": "ACCCAGGC", "E-score": -0.149}
{"Strand": "GTGTGTAA", "E-score": -0.121}
{"Strand": "CGAGTGCG", "E-score": 0.189}
{"Strand": "CGGTCACC", "E-score": 0.118}
{"Strand": "ACCGCCGA", "E-score": 0.261}
{"Strand": "GACCAATC", "E-score": -0.186}
{"Strand": "GAGGTGCA", "E-score": -0.0557}
{"Strand": "TGAGAACA", "E-score": -0.0622}
{"data": "Block 4", "target": "Interferon regulatory factor 5, full length, phosphomimetic (IRF5, Homo sapiens, UniProt Q13568-2, residues 1-514, K96S/S451D/S453D/S456D/S462D)", "technique": "protein-binding microarray", "form": "double-stranded DNA, one strand shown", "medium": "in vitro", "concentration": "250 nM", "setting": "60-bp whole probe", "added": "salmon DNA 0.4 mg/ml", "reference": "random background probes", "direction": "higher = stronger binding", "shared flanks, not repeated": "GCCTAGCAC … GTCTTGATTCGCTTGACGCTGCTG"}
{"Strand": "GACGTACTGGGGTATCGAGACGTGCTA", "log fluorescence": "0.0178 z-score"}
{"Strand": "ACAAGTTTTTATTTTCTGAAGTGCTAG", "log fluorescence": "1.67 z-score"}
{"Strand": "TTAGAACTGAGTAACGATTAGTGCTAG", "log fluorescence": "0.29 z-score"}
{"Strand": "GACGATATCGGTCTCGAGACGTGCTAG", "log fluorescence": "3.73 z-score"}
{"Strand": "GACTGTCTCGGTCTCGGGACGTGCTAG", "log fluorescence": "0.281 z-score"}
{"Strand": "TTAGTTCTCCTTATCCTTTAGTGCTAG", "log fluorescence": "0.68 z-score"}
{"Strand": "TTCGGTTTCGGGACTGGGTTAGTGCTA", "log fluorescence": "7.27 z-score"}
{"Strand": "GACGGTATCGACTTTCGGGACGTGCTA", "log fluorescence": "6.77 z-score"}
{"Strand": "TTAGGACTCCTACTGCTTTAGTGCTAG", "log fluorescence": "-0.331 z-score"}
{"Strand": "TCAGTTTCGTATCTTCATACTGTGCTA", "log fluorescence": "8.54 z-score"}
{"Strand": "GACGGACCGGGGACTGGGGACGTGCTA", "log fluorescence": "-0.497 z-score"}
{"Strand": "GACGGTTTTGACACTGGGGACGTGCTA", "log fluorescence": "0.218 z-score"}
{"Strand": "TTAGGTTTCGAAACTGGGTTAGTGCTA", "log fluorescence": "6.66 z-score"}
{"Strand": "GTAGGTATCGACACTGGGTTAGTGCTA", "log fluorescence": "2.17 z-score"}
{"Strand": "AGGCAGGCATAAAGGAAAAAGTGCTAG", "log fluorescence": "-0.4 z-score"}
{"Strand": "TCACCAATCTCTCTTCAACTGTGCTAG", "log fluorescence": "0.292 z-score"}
{"Strand": "GACAGACTGGGGTATCGGGACGTGCTA", "log fluorescence": "0.14 z-score"}
{"Strand": "TTAGGTATCGATTTCGGTTAGTGCTAG", "log fluorescence": "9.37 z-score"}
{"Strand": "TTAGGAATCGACTTTCGGTTAGTGCTA", "log fluorescence": "10.1 z-score"}
{"note": "A few entries again (block 3):"}
{"Strand": "CGATCGAG", "E-score": 0.138}
{"Strand": "ACGCGGTG", "E-score": 0.249}
{"Strand": "GACCTATA", "E-score": 0.0574}
